Experimental data gathered from unrelated publications.
Every numbered part comes from another study and shows a few of its results, in no order. Positions count from the first letter of the parent shown.
Chain of UniProt Q9C0B0 (30-357, looked up): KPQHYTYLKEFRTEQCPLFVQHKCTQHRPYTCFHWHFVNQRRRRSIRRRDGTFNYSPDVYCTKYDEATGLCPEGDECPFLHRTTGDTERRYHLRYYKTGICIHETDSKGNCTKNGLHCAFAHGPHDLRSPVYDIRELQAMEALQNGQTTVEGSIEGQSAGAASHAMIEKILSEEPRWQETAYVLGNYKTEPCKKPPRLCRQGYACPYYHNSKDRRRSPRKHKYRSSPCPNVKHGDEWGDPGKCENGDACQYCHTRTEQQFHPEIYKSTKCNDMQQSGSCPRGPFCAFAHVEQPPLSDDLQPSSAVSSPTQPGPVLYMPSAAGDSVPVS

Sample 1 — target: CCNF, cyclin fold, Cln2 fusion (human); method: yeast growth competition, sequencing; medium: yeast; setting: strong parent motif; relative to: not given; direction: higher = stronger binding
Starting sequence: MICAL3 docking peptide (human); LQLRRQLSFSEDS
Change	normalised enrichment score
D12L	5.4
F9D	-0.166
R4F	2.14
D12E	5.43
Q6G	1.93
F9M	1.05
D12F	6.13
Q6M	5.23
R5G	-0.11
F9P	-0.0265
Q6C	5.43
L7N	-0.27
R5T	0.357
R5Y	0.0243
E11D	5.13
Q6A	4.76
L7D	-0.635
L7Y	-0.0981
F9Y	2.13
L3H	2.41

Sample 2 — method: RNA Bind-n-Seq; form: RNA; medium: in vitro; tested at: 365 nM; relative to: no-protein control; direction: higher = stronger binding
Target: RNA binding protein fox-1 homolog 2, RRM domain, GST-SBP tag (RBFOX2, Homo sapiens, UniProt O43251-10, residues 100-194)
Setting: natural RNA segment, single round, ends assumed
Constant ends, left off below: GGGAGUUCUACAGUCCGACGAUC … UGGAAUUCUCGGGUGCCAA
Target sequence (chain): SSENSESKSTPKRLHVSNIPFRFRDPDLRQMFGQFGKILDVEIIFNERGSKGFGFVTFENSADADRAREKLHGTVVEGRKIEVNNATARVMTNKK
Oligonucleotide	RBNS enrichment (R)
AGGGCCAGAGUCACAGUAUGGCACCGAGGCAGAAGGGAAGAGCUGAGACUGGCCCUGCCCUGCUUCUCAGUCUGUUCCACAUCCUAAGGUCACACCCUGUCAGGACUUCU	0.341
UCUGUCUUUGCACUUAGCUGUUCAAGUAUUGCCUUGGAUUUACAAAAUACAAGGGAUGGGGAAAUCUUCUGGAUUCUGUUUUGUGACUGGAUGACCCUAGCUUCUUUACC	0.316
UACUUUAGGUGAAGGAGCUUUUGGAAAAGUUGUGGAGUGCAUCGAUCAUAAAGGGGGAGGUAGACAUGUAGCAGUAAAAAUAGUUAAAAAUGUGGAUAGAUACUGUGAAG	1.9
CCCGUCUCCCUUUCCACAUCAAGGCACAUCAGACUUCUCAGAGACCCACUUUAUUCAGUUCUGUACAUAUGGGGACAUCGGUCCAAGCCCAACCCACCUUAGCAUGUAUC	3.82
GCUUGCUCAGAGAGGCCAAACCCUGCUCCCAGGCUGAAGCCUGGAGUCUGCCCCCACUUCCCUUUUCUAUAAUCCACCCUUCUGCAGGCCCUGAAAUCUGAAGGGCUUAG	2.52
CUUUUGCAGUACUUCUCCAUGCCUUCCCUGCUACAAGUGUUUUUAGAUGUUAUUACUGUACUUUCCCCAAAUUCUGCUCCUGUACUUGCAAACUGAAGGUAACUAUACCU	1.01
UCAGACCUUCCCAUCUCCCUGGCUUUCCAUGCUCCUCUCCCUCCACCUCCUGGCUUCAACUGGGUGAGGGCCGUAUUCCUGCCACUCUGCUCCGCCUCAGCCUUGAGAAC	0.358
AAACAGACCUGUGUUCCACCCUCUGCAAGAUAAUGUCCAACUACCAAGGUGAUGUUAAGGGCAUAGAAGGGGCAUAUUUGUCUUCAGUUGAAUGCCAUUGUGUGCCAGUU	0.581

Sample 3 — method: DHFR PCA, deep sequencing; medium: yeast; together with: (+)-ABA 0 µM; relative to: wild-type fitted maximum; direction: higher = stronger binding
Target: ABI1, truncated, D143A, DHFR fusion (Arabidopsis thaliana)
Setting: methotrexate growth selection, single substitutions
Starting sequence: PYL1, truncated, DHFR fusion (Arabidopsis thaliana); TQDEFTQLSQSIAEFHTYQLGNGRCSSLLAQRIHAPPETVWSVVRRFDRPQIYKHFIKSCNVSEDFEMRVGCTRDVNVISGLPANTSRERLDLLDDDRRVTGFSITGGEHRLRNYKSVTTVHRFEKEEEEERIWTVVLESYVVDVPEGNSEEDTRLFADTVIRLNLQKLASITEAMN
Change	relative binding score [%]
S117I	-7.81
C25D	0.0123
S59G	4.4
V70F	-2.95
L156H	0.697
L91R	3.07
A84T	23.9
F56Q	-2.24
D96E	34.9
D95V	-10.1

Other studies, line by line
Molecule	target	assay	test system	setting	scale	endpoint	result
GGGAGUUCUACAGUCCGACGAUCAAAUAUGUUGUACAUUUGAUUAAAAUUAUUCCGAUAAAUAUUACUAUGUUGACUUUUAAACCGCUUUAUCCUAUUUUUCAUUCAUUUUGCAAAUAUUUGUUGUGUGCCGUUUCUUAACGUCAACAGAGGAUUGAGCAUCA	RING finger protein unkempt homolog, zinc fingers 1-6, SBP tag (UNK, Homo sapiens, UniProt Q9C0B0, residues 30-357)	RNA Bind-n-Seq	RNA, in vitro	100 nM, RNA with constant flanks, ends assumed	relative to: input RNA pool, higher = stronger binding	bound/input enrichment	0.506 ratio
PhoQ, residues 284 288 289 292 302 303 NLGVHL	PhoP, residues 12 14 15 18 19 LHSVW (Escherichia coli, UniProt P23836)	Sort-seq, item: YFP reporter	E. coli	PhoQ-PhoP variant library, together with: 10 µM Mg2+	relative to: high Mg2+ state, higher = stronger signaling	fold induction	3.11
